# Measurements from different studies.
# Compare with care: the assays were run in different laboratories.
# Target: Serine/threonine-protein kinase 4 (STK4, Homo sapiens, UniProt Q13043)
# Sequence (Q13043 1-487, as in one of the studies): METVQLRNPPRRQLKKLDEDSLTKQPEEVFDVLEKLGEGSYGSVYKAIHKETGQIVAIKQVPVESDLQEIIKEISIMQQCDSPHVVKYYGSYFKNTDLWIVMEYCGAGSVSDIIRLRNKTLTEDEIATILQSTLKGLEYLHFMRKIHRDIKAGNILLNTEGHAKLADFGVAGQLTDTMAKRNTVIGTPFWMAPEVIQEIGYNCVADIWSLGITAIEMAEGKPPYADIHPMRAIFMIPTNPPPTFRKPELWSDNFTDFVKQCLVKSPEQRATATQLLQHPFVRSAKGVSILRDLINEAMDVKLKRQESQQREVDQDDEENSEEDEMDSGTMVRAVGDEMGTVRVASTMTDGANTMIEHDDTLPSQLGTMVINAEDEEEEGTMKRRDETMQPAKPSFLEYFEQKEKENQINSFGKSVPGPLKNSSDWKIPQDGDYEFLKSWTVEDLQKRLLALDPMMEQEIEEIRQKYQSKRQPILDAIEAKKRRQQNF
SMILES,assay,system,setting,scale,quantity,value
CCN1CCN(Cc2ccc(C(=O)Nc3ccc(C)c(NCc4cnc5[nH]ccc5c4OC)c3)cc2C(F)(F)F)CC1,"binding, competition with immobilised ligand",,1 µM,,remaining binding,100%
Cc1cccc(O[C@H]2CCC[C@@H](C(C)CNCc3ccncc3)C2)c1 (relative stereo),"kinase activity, kinome panel screening",,1 µM,,inhibition,3%
CNC(=O)C1CCN(c2cc(C)c(F)cc2NC(=O)c2ccc(-c3cc(O)ccc3C)c(C)c2)CC1,"binding, competition with immobilised ligand",,1 µM,,remaining binding,100%
O=C(O)CCC(=O)c1cccc(NS(=O)(=O)c2c[nH]c3ncccc23)c1,"kinase activity, radiometric",,10 µM,,remaining activity,96%
Cc1ccc(-c2c(/C=C(\C#N)C(=O)NC(C)C)n(CCCO)c3ncnc(N)c23)cc1,"binding, competition with immobilised ligand",,1 µM,,remaining binding,77%
O=C=[N][Ru-4]123([n]4c5ccc(O)cc5c5c6c(c7cc(F)c[n+]1c7c54)C(=O)NC6=O)[S+]1CC[S+]2CC[S+]3CC1 (stereo not shown),enzyme activity,,"100 nM, human enzyme, added: 10 µM ATP",baseline: untreated,remaining activity,78%
Cc1cnc2nc1Nc1cccc(c1)COC/C=C/COCc1cc(ccc1OCCN1CCOCC1)N2,cell-free assay,,0.1 µM,,remaining signal,100%
CC(C)=CC1OC(C)(C)C2C=C3C(=O)C(Cl)=CC(O)C3C3C(O)C4OC4C(=O)C132 (stereo not shown),"cell-free assay, competition with immobilised ligand",,10 µM,,remaining binding,92%
COc1cc(Nc2nc(C)cc(-c3cnn4nc(OC)ccc34)n2)cc(C(F)(F)F)c1,inhibitor,,"1 µM, MST1",baseline: control,remaining activity,85%
C=CC(=O)Nc1cccc(-c2cnc3[nH]cc(C(=O)NC(C)(C)C)c3n2)c1,"enzyme activity, inhibitor",,0.1 µM,,inhibition,79%
C=CC(=O)N1CCc2ccc(-n3c(=O)ccc4cnc5ccc(-c6cnn(C)c6)cc5c43)cc21,KINOMEscan,,1 µM,baseline: DMSO control,remaining binding,100%
NC(=O)[C@@H](O)C[C@H]1CCc2sc3ncnc(O[C@H]4CC[C@H](N5CCOCC5)CC4)c3c21,"enzyme activity, inhibitor",,10 µM,,inhibition,21%
Nc1ncc2c(n1)-c1c([nH]c3ccc(C4=CCOCC4)cc13)CCC2,"binding, competition with immobilised ligand",,1 µM,,remaining binding,100%
CS(=O)(=O)Nc1cccc(-c2csc3cnc(Nc4ccc(N5CCN(CCCCCOc6cccc7c6C(=O)N(C6CCC(=O)NC6=O)C7=O)CC5)cc4)nc23)c1 (stereo not shown),"probe labelling, inhibitor, KiNativ chemoproteomics",MOLT-4,1 µM,,inhibition,-0.856%
Cc1ccc(C(=O)Nc2ccc(CN3CCN(C)CC3)c(C(F)(F)F)c2)cc1C#Cc1cnc2cccnn12,"target engagement, NanoBRET",human cells,,,upper asymptote,51.1
COc1c(OCCCN2CCOCC2)ccc2c1N=C(NC(=O)c1cnc(N)nc1)N1CCN=C21,"kinase activity, inhibitor",,1 µM,baseline: untreated control,remaining activity,112%

# A few entries again:
SMILES,assay,system,setting,scale,quantity,value
NC(=O)[C@@H](O)C[C@H]1CCc2sc3ncnc(O[C@H]4CC[C@H](N5CCOCC5)CC4)c3c21,"enzyme activity, inhibitor",,10 µM,,inhibition,21%
